Measured values gathered from unrelated publications.
Each numbered part is a random draw from the data of one study; scales do not carry over between parts. Changes are numbered by the printed parent chain.

Series 1
Target: Interferon regulatory factor 7, full length, phosphomimetic (IRF7, Homo sapiens, UniProt Q92985, residues 1-503, S101K/S471D/S472D/S475D/S476D/S477D/S483D/S484D/S487D)
Method: protein-binding microarray
Molecule type: double-stranded DNA, one strand shown
Matrix: in vitro
Concentration: 250 nM
Notes: 60-bp whole probe
With: salmon DNA 0.4 mg/ml
Baseline: random background probes
Reading: higher = stronger binding
Quantity: log fluorescence
All sequences stand within: GCCTAGCAC … GTCTTGATTCGCTTGACGCTGCTG
Residues (chain): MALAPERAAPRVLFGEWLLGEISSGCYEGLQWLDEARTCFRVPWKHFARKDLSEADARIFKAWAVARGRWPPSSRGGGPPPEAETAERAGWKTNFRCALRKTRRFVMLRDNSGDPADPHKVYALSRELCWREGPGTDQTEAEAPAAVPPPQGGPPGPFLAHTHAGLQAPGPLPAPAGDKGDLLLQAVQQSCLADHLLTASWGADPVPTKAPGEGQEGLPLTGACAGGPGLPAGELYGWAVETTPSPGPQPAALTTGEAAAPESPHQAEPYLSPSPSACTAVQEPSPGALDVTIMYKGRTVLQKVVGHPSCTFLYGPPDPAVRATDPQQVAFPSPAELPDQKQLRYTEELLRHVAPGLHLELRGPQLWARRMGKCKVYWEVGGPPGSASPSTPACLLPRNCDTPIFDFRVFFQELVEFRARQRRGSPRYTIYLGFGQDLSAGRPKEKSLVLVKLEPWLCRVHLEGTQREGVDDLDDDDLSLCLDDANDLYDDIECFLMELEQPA
Oligonucleotide = GACGATCTCGGGTATCGAGACGTGCTA; result = 0.0232 z-score
Oligonucleotide = TTAGAACTGAGGCTCGATTAGTGCTAG; result = 0.431 z-score
Oligonucleotide = GACGAACTGGGGACTGGGGACGTGCTA; result = -0.528 z-score
Oligonucleotide = GACGGTTTCGACTTTCGGGAAGTGCTA; result = 11.3 z-score
Oligonucleotide = TCAACTTTGACTTAAGAACTGTGCTAG; result = 0.337 z-score
Oligonucleotide = TTAGAACTGAGTATTGATTAGTGCTAG; result = -0.196 z-score
Oligonucleotide = GACGGTATACTTATCCTGACGTGCTAG; result = -0.169 z-score
Oligonucleotide = TAAGGTATCGGGTATCGGTTAGTGCTA; result = 1.53 z-score

Series 2
Target: CCNA1, cyclin fold, Cln2 fusion (human)
Method: yeast growth competition, sequencing
Matrix: yeast
Notes: weak parent motif
Baseline: not given
Reading: higher = stronger binding
Quantity: normalised enrichment score
Starting sequence: E2F1 docking peptide (human); PPVKRRLDLETDH; partner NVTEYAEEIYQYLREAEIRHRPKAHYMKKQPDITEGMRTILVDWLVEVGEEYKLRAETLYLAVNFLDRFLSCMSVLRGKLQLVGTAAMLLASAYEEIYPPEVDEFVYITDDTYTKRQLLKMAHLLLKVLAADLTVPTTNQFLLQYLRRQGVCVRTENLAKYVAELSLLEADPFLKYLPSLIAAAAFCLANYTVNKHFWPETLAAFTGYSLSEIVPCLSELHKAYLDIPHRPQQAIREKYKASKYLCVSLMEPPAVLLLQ
Variant = V3G; result = 0.174
Variant = T11S; result = 0.626
Variant = R5E; result = 0.245
Variant = R6G; result = 0.248
Variant = K4R; result = 0.742
Variant = P1W; result = 0.698

Series 3
Target: Sal-like protein 4, full length isoform B (SALL4, Homo sapiens, UniProt Q9UJQ4-2, residues 1-616)
Method: universal PBM
Molecule type: double-stranded DNA, one strand shown
Matrix: in vitro
Concentration: not given
Notes: 8-mer, flanks averaged, mean of replicates
Reading: higher = stronger binding
Quantity: E-score
Oligonucleotide = ATCTTTCA; result = 0.137
Oligonucleotide = CAGGGTAG; result = -0.253
Oligonucleotide = AATTCAAG; result = 0.179
Oligonucleotide = CAATCCCA; result = -0.185
Oligonucleotide = ATAGATTA; result = 0.33
Oligonucleotide = ATCAAGGC; result = 0.0465
Oligonucleotide = AATGAGCC; result = -0.117

Single results of other studies
Molecule = PhoQ, residues 284 288 289 292 302 303 ALASRC; target = PhoP, residues 12 14 15 18 19 NHTVL (Escherichia coli, UniProt P23836); test = Sort-seq, item: YFP reporter; test system = E. coli; conditions = PhoQ-PhoP variant library, with: 10 µM Mg2+; how to read = baseline: high Mg2+ state, higher = stronger signaling; quantity = fold induction; result = 2.66

A few entries again (series 3):
Oligonucleotide = ATCTTTCA; result = 0.137
